# Assay results gathered from unrelated publications.
# A part holds a random share of what one study measured. Several values in a cell are separate wells, animals, samples, runs or records.
# Sequence of UniProt P50750 (whole entry, looked up): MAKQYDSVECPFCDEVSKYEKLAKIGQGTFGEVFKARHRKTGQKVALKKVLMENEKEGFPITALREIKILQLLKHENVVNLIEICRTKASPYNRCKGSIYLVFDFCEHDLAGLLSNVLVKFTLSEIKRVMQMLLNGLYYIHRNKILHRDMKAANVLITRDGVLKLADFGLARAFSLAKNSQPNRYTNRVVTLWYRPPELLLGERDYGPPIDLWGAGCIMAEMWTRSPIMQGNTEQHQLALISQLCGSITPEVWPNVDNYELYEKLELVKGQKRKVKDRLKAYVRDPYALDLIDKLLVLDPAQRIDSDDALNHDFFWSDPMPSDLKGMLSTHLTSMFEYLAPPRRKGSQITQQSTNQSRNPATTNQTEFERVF

# Study 1 — read-out: enzyme activity; mode: inhibitor; concentration: 0.5 µM; relative to: control
# Target: Serine/threonine-protein kinase MRCK beta (CDC42BPB, Homo sapiens, UniProt Q9Y5S2)
# Sequence of UniProt Q9Y5S2 (whole entry, looked up): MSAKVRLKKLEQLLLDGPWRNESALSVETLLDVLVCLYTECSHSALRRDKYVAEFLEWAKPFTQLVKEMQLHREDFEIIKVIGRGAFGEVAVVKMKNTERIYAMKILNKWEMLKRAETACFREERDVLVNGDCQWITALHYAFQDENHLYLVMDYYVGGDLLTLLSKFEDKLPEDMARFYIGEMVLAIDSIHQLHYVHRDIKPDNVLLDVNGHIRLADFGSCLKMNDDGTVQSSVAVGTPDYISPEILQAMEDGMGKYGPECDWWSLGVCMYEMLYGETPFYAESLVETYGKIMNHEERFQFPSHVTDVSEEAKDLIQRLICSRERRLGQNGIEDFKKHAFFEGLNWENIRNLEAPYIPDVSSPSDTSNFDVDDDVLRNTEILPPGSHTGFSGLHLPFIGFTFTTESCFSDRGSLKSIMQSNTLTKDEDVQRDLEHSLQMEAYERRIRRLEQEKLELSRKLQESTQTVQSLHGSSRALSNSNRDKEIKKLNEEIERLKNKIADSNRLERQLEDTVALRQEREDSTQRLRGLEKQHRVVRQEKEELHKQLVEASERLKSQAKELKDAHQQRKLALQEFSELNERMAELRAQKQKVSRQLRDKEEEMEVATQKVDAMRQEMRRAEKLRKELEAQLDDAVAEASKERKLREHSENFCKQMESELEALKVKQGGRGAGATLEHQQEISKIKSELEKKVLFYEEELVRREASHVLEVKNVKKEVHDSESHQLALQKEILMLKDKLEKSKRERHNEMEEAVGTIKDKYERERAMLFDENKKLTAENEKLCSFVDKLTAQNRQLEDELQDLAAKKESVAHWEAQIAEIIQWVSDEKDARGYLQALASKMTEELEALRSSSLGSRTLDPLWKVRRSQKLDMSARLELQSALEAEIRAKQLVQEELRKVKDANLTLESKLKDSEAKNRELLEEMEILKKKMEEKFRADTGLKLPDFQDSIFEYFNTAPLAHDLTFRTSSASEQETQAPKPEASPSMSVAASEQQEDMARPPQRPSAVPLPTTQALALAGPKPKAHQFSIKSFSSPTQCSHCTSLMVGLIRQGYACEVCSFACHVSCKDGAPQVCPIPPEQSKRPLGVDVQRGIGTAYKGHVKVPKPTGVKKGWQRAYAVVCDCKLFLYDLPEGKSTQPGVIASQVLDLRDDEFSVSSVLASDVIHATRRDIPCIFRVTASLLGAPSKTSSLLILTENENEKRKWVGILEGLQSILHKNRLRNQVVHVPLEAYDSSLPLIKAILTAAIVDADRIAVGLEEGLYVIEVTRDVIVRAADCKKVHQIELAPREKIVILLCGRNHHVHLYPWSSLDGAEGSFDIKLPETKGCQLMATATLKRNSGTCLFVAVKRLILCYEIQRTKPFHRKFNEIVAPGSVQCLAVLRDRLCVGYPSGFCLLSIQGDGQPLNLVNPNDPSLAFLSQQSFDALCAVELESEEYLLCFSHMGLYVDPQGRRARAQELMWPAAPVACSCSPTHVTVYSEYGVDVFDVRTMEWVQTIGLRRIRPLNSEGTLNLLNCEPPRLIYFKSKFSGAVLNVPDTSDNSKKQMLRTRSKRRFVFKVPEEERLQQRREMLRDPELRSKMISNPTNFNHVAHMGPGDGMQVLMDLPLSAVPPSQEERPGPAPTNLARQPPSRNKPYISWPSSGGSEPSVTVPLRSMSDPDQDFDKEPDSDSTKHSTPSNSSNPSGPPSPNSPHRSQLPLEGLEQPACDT
Structure (SMILES),remaining activity [%]
COc1cc2c(Nc3ccc(Br)cc3F)ncnc2cc1OCC1CCN(C)CC1,98
c1cc(-c2cnn3cc(-c4ccc(OCCN5CCCCC5)cc4)cnc23)ccn1,95.7
O=Nc1c(-c2c(O)[nH]c3ccccc23)[nH]c2ccccc12,99.5
CC(C)n1cnc2c(Nc3cccc(Cl)c3)nc(NCCO)nc21,109
O=c1c(-c2ccc(F)cc2)c(-c2ccncc2)[nH]n1-c1ccc(Cl)cc1,103
CCN(CC)CCCCN1c2ccccc2Oc2ccc(Cl)cc21,99.7
CC(C)N(CCC(=O)c1ccc2ccccc2c1)Cc1ccccc1,95
O=C(c1ccccc1)c1ccc(N2CCOCC2)cc1O,90.9
O=C(O)/C=C/c1cc(Br)c(Br)c(Br)c1Br,97.4
COc1cc2c(N3CCN(C(=O)Nc4ccc(OC(C)C)cc4)CC3)ncnc2cc1OCCCN1CCCCC1,100
C[C@@H](N)[C@H]1CC[C@H](C(=O)Nc2ccncc2)CC1,99.3
N#CC(c1ccnc(NCCc2cccnc2)n1)c1nc2ccccc2s1 (stereo not drawn),95.2
Clc1ccc(Nc2nnc(Cc3ccncc3)c3ccccc23)cc1,99.5
Nc1nc(Nc2ccc(S(N)(=O)=O)cc2)nn1C(=S)Nc1c(F)cccc1F,48.1
NC(=O)c1cccc(-c2cc(Nc3ccc(OC(F)(F)F)cc3)ncn2)c1,93.2
O=C1NC(=O)/C(=C/c2ccc3c(c2)OC(F)(F)O3)S1,96.4
CC(C)(C)c1nc2c3cc[nH]c(=O)c3c3cc(F)ccc3c2[nH]1,96.8
O=C1c2ccccc2-c2nc3nnnn3nc21,82.6
CNc1cc2c(Nc3cccc(Br)c3)ncnc2cn1,107
FC(F)(F)c1ccc(/C=C/c2nc(COc3ccc(CCCCn4ccnn4)cc3)co2)cc1,100
N#C/C(=C(/N)SC1C=CC=CC1)c1cccc(C(O)c2ccncc2)c1 (stereo not drawn),117
NC(=O)c1ccc(-c2nc(-c3ccc4c(c3)OCCO4)c(-c3ccccn3)[nH]2)cc1,102

# Study 2 — read-out: enzyme activity; mode: inhibitor; concentration: 77 µM; relative to: untreated
# Target: DNA polymerase theta, ATPase domain (POLQ, Homo sapiens, UniProt O75417)
# Sequence of UniProt O75417 (whole entry, unmodified, looked up): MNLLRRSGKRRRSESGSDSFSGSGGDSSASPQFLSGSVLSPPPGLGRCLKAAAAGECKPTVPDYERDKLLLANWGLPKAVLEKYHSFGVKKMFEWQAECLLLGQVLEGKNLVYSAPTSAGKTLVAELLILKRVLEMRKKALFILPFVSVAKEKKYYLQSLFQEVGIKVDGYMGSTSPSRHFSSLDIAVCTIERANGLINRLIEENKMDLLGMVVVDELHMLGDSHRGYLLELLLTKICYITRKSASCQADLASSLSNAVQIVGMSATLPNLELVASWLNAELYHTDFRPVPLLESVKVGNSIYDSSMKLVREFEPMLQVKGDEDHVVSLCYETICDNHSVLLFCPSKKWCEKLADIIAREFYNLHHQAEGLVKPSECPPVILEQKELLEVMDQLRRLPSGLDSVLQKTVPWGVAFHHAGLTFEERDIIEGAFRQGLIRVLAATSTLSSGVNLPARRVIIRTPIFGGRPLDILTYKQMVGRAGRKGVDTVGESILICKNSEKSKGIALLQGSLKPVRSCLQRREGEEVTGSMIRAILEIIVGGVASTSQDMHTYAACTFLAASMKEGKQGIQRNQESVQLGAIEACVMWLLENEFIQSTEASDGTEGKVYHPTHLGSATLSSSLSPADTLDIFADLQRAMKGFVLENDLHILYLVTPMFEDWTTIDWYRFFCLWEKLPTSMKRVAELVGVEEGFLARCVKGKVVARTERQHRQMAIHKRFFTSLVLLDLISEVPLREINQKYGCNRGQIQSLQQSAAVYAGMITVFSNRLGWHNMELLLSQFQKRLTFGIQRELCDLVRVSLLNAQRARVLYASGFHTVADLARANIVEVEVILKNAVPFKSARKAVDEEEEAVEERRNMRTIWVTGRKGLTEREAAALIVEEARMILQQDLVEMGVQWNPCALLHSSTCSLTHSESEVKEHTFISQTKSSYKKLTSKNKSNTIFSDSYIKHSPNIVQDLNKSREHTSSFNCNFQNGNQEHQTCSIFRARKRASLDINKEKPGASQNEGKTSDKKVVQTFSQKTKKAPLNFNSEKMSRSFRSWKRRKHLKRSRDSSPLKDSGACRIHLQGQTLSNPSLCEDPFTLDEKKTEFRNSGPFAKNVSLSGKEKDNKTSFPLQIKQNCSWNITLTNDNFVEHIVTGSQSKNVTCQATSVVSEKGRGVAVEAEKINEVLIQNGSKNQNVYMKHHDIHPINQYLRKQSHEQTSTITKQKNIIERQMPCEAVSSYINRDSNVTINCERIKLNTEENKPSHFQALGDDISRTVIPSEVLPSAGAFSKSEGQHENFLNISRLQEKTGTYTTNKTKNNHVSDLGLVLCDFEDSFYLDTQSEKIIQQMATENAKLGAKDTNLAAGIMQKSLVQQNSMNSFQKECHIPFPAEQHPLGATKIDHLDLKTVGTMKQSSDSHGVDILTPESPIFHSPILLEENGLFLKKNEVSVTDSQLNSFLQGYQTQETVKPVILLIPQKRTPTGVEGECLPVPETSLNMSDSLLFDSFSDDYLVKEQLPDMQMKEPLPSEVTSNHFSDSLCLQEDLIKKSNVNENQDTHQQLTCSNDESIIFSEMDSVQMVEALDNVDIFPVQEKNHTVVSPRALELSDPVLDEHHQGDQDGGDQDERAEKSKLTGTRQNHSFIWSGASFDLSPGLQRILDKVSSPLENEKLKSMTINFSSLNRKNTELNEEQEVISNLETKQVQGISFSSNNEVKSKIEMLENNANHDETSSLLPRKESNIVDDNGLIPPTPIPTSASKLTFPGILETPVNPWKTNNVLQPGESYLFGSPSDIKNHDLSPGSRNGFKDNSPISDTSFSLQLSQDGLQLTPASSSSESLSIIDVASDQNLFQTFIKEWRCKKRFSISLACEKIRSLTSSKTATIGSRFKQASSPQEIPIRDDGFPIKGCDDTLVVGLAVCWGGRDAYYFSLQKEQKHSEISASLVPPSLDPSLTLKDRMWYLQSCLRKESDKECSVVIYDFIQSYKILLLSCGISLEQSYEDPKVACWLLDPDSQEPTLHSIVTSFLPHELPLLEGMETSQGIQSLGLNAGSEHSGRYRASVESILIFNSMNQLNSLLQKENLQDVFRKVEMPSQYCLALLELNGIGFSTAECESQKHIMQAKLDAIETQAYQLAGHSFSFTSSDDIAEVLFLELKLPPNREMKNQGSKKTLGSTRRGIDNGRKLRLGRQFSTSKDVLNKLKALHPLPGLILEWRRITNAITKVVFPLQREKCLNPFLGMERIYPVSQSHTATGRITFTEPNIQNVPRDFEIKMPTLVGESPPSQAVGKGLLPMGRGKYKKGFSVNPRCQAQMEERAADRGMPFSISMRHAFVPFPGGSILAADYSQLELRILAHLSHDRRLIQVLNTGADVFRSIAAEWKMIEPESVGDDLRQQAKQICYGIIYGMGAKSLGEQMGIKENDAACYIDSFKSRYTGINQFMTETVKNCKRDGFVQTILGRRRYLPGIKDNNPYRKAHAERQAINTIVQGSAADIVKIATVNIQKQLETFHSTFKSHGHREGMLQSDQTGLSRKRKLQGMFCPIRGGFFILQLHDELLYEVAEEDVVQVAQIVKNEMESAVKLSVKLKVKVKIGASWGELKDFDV
SMILES,remaining activity
CCNc1nc2c(ncn2[C@H]2C[C@H](O)[C@@H](CO)O2)c(=O)[nH]1,98.3%
CC1CCN=C(N)S1 (stereo not drawn),97.6%
COc1ccc2c(OC)c3ccoc3nc2c1OC,104%
C=CCOc1ccccc1OCC(O)CNC(C)C (stereo not drawn),102%
CC(C)OC(=O)C(C(=O)OC(C)C)=C1SC=CS1,96.6%
Nc1nc(Cl)nc2c1ncn2[C@H]1C[C@H](O)[C@@H](CO)O1,99%
CC1CC(OC(=O)C(O)c2ccccc2)CC(C)(C)C1 (stereo not drawn),98.2%
O=c1cc(N2CCNCC2)oc2c(-c3ccccc3)cccc12,103%
C=CC(=O)Nc1cc2c(Nc3ccc(F)c(Cl)c3)ncnc2cc1OCCCN1CCOCC1,106% and 110% and 111%
CCOCC(O)COc1ccc(NC(=O)CC[S+](C)C)cc1 (stereo not drawn),97.1%
COc1cc2c(Oc3ccc4[nH]c(C)cc4c3F)ncnc2cc1OCCCN1CCCC1,105%
CC(C)CC(=O)Nc1n[nH]c2c1CN(C(=O)C1CCN(C)CC1)C2(C)C,100%

# Study 3 — concentration: 0.1 µM
# SMILES: COCCOc1nc(-c2ccc(Cl)nc2)nc2c1CN(C(=O)c1ncn3ccccc13)CC2
target,read-out,technique,remaining binding
"SNF-related serine/threonine-protein kinase (SNRK, Homo sapiens, UniProt Q9NRH2)",cell-free assay,competition with immobilised ligand,79%
"Cyclin-dependent kinase 9 (CDK9, Homo sapiens, UniProt P50750)",cell-free assay,competition with immobilised ligand,100%
"Casein kinase I isoform gamma-1 (CSNK1G1, Homo sapiens, UniProt Q9HCP0)",cell-free assay,competition with immobilised ligand,100%
"Mitogen-activated protein kinase kinase kinase 9 (MAP3K9, Homo sapiens, UniProt P80192)",cell-free assay,competition with immobilised ligand,100%
"Ephrin type-B receptor 4 (EPHB4, Homo sapiens, UniProt P54760)",cell-free assay,competition with immobilised ligand,100%
"Cyclin-dependent kinase 19 (CDK19, Homo sapiens, UniProt Q9BWU1)",,competition binding,63%
"RAC-gamma serine/threonine-protein kinase (AKT3, Homo sapiens, UniProt Q9Y243)",binding,competition with immobilised ligand,47%
"Epidermal growth factor receptor (EGFR, Homo sapiens, UniProt P00533, del746-750)",cell-free assay,competition with immobilised ligand,100%
"Non-receptor tyrosine-protein kinase TNK1 (TNK1, Homo sapiens, UniProt Q13470)",cell-free assay,competition with immobilised ligand,100%
"Dual specificity mitogen-activated protein kinase kinase 2 (MAP2K2, Homo sapiens, UniProt P36507)",cell-free assay,competition with immobilised ligand,100%
"Serine/threonine-protein kinase PLK2 (PLK2, Homo sapiens, UniProt Q9NYY3)",cell-free assay,competition with immobilised ligand,100%
"Serine/threonine-protein kinase PAK 6 (PAK6, Homo sapiens, UniProt Q9NQU5)",cell-free assay,competition with immobilised ligand,100%
"Protein-tyrosine kinase 2-beta (PTK2B, Homo sapiens, UniProt Q14289)",cell-free assay,competition with immobilised ligand,100%
"BMP-2-inducible protein kinase (BMP2K, Homo sapiens, UniProt Q9NSY1)",cell-free assay,competition with immobilised ligand,90%
"Serine/threonine-protein kinase PLK1 (PLK1, Homo sapiens, UniProt P53350)",cell-free assay,competition with immobilised ligand,100%
"Serine/threonine-protein kinase 36 (STK36, Homo sapiens, UniProt Q9NRP7)",cell-free assay,competition with immobilised ligand,79%
"Myosin light chain kinase (MYLK3, Homo sapiens, UniProt Q32MK0)",cell-free assay,competition with immobilised ligand,83%
"Serine/threonine-protein kinase Sgk1 (SGK1, Homo sapiens, UniProt O00141)",cell-free assay,competition with immobilised ligand,91%
"Epidermal growth factor receptor (EGFR, Homo sapiens, UniProt P00533, del752-759)",cell-free assay,competition with immobilised ligand,80%
"Mitogen-activated protein kinase kinase kinase 20 (MAP3K20, Homo sapiens, UniProt Q9NYL2)",cell-free assay,competition with immobilised ligand,100%
"MAP/microtubule affinity-regulating kinase 3 (MARK3, Homo sapiens, UniProt P27448)",cell-free assay,competition with immobilised ligand,100%

# Study 4 — read-out: enzyme activity; mode: inhibitor; concentration: 10 µM
# Target: Calcium/calmodulin-dependent protein kinase type II subunit alpha (CAMK2A, Homo sapiens, UniProt Q9UQM7)
# Sequence of UniProt Q9UQM7 (whole entry, looked up): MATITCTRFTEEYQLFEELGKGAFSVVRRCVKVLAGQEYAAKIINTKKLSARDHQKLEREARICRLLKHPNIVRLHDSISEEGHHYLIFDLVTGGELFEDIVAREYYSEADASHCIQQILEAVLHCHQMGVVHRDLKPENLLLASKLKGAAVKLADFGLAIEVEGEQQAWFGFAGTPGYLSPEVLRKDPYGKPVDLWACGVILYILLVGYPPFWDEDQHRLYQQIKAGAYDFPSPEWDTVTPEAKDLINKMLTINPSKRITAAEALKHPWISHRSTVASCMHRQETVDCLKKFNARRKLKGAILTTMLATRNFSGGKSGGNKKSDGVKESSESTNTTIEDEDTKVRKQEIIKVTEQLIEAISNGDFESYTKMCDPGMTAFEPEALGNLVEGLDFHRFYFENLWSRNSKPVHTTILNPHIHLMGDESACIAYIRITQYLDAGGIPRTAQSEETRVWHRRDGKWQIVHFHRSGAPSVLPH
SMILES,inhibition
CC(=O)OCC1=C(C(=O)O)N2C(=O)[C@@H](NC(=O)CSC(=NC(C)C)NC(C)C)[C@H]2SC1,0%
CC(=O)N(O)CCCCCNC(=O)CCC(=O)N(O)CCCCCNC(=O)CCC(=O)N(O)CCCCCN,-14%
O=C(O)Cc1c[nH]c2ccccc12,12%
CCCC/C=C\CCCCCCCc1cc(=O)c2ccccc2n1C,-54%
CCCCCCCC/C=C\CCCCCCCC(=O)OCC(COC(=O)CCCCCCC/C=C\CCCCCCCC)OC(=O)CCCCCCCCCCCCCCC,1%
COc1c(O)cc2oc(-c3ccc(O)c(O)c3)cc(=O)c2c1O,-19%
CC(C(=O)O)c1ccc(C(=O)c2cccs2)cc1 (stereo not drawn),-4%
CCCCCCCCCCCCCCCC(=O)OC[C@H](CO)OC(=O)CCCCCCCCCCCCCCC,-18%
C[C@@H](O)[C@H]1C(=O)N2C(C(=O)OCOC(=O)C(C)(C)C)=C(SC3CN(C4=NCCS4)C3)[C@H](C)[C@H]12,-8%
CC(C)CCC[C@@H](C)[C@H]1CC[C@H]2C3=CC[C@H]4C[C@@H](O)CC[C@]4(C)[C@H]3CC[C@]12C,-20%
NC(CCC(=O)O)C(=O)O (racemic),1%

# Repeated from above (study 3):
target,read-out,technique,remaining binding
"Myosin light chain kinase (MYLK3, Homo sapiens, UniProt Q32MK0)",cell-free assay,competition with immobilised ligand,83%
"Epidermal growth factor receptor (EGFR, Homo sapiens, UniProt P00533, del746-750)",cell-free assay,competition with immobilised ligand,100%
"Serine/threonine-protein kinase PLK2 (PLK2, Homo sapiens, UniProt Q9NYY3)",cell-free assay,competition with immobilised ligand,100%
"Serine/threonine-protein kinase Sgk1 (SGK1, Homo sapiens, UniProt O00141)",cell-free assay,competition with immobilised ligand,91%
"Mitogen-activated protein kinase kinase kinase 9 (MAP3K9, Homo sapiens, UniProt P80192)",cell-free assay,competition with immobilised ligand,100%
"Protein-tyrosine kinase 2-beta (PTK2B, Homo sapiens, UniProt Q14289)",cell-free assay,competition with immobilised ligand,100%
"SNF-related serine/threonine-protein kinase (SNRK, Homo sapiens, UniProt Q9NRH2)",cell-free assay,competition with immobilised ligand,79%
"Epidermal growth factor receptor (EGFR, Homo sapiens, UniProt P00533, del752-759)",cell-free assay,competition with immobilised ligand,80%
"BMP-2-inducible protein kinase (BMP2K, Homo sapiens, UniProt Q9NSY1)",cell-free assay,competition with immobilised ligand,90%
